Published values from different studies.
Protocols differ between the studies behind these lines. ± marks the error that the study gave.

`O=C(NCCCCCn1ccc2ccc(F)cc21)Oc1cccc(F)c1` — result for “remaining parent compound”: 62 ± 5% (porcine liver S9 fraction without NADPH; 20 µM, 0.5 h, 37 °C).
Under “remaining intact peptide”, `CC[C@H](C)[C@H](NC(=O)[C@@H](Cc1c[nH]c2ccccc12)NC(=O)[C@@H]1CCCN1C(=O)[C@H](CCCCN)NC(=O)[C@H](CCCCN)NC(=O)CCNC(=O)CCNC(=O)CN1CCN(CC(=O)O)CCN(CC(=O)O)CCN(CC(=O)O)CC1)C(=O)N[C@@H](C[Si](C)(C)C)C(=O)O` [gallium-68 labelled] is recorded as 23.5% (human blood plasma; 15 min).
With `CC[C@H](C)[C@H](NC(=O)[C@H](CC(N)=O)NC(=O)[C@@H]1CCCN1C(=O)[C@H](CO)NC(=O)[C@H](CC(N)=O)NC(=O)[C@@H](N)CCC(N)=O)C(=O)N[C@@H](Cc1ccccc1)C(=O)NCC(=O)N[C@@H](CCC(N)=O)C(=O)N[C@@H](Cc1c[nH]c2ccccc12)C(=O)N[C@@H](CCSC)C(=O)O` the remaining peptide was about 70% (PBS; 24 h, pH 7.2, 37 °C).
`O=C(NCCCCCn1ccc2ccc(F)cc21)Oc1ccccc1F` — result for “remaining parent compound”: 76 ± 2% (porcine liver S9 fraction without NADPH; 20 µM, 0.5 h, 37 °C).
Under “remaining intact peptide”, `CC(C)C[C@@H]1NC(=O)[C@H](Cc2ccccc2)NC(=O)[C@H](CCC(=O)O)NC(=O)CNC(=O)[C@H]([C@@H](C)O)NC(=O)[C@H](CCC(=O)O)NC(=O)[C@@H]2CCCN2C(=O)[C@H](CC(=O)O)NC(=O)[C@H](CC(C)C)NC(=O)[C@H](CCC(=O)NCCOCCOCC(=O)NCCCC[C@H](NC(=O)CC[C@@H]2NC(=O)[C@@H](CCCNC(=N)N)NC(=O)[C@H](CCCNC(=N)N)NC(=O)[C@@H](CCCNC(=N)N)NC(=O)[C@H](CCCNC(=N)N)NC(=O)[C@H](Cc3ccc4ccccc4c3)NC(=O)[C@@H](Cc3ccccc3)NC2=O)C(N)=O)NC(=O)CNC1=O` is recorded as about 80% (reversed-phase HPLC; 25% human serum; 24 h, 37 °C).
Under “remaining intact peptide”, `CC[C@H](C)[C@@H]1NC(=O)[C@H](CCCCN)NC(=O)[C@H](CCCCN)NC(=O)[C@H](Cc2ccc(O)cc2)NC(=O)[C@H](CC(C)C)NC(=O)[C@@H]2CCCN2C(=O)[C@H](C)NC(=O)CNC(=O)CNC(=O)[C@H](CO)NC(=O)CNC(=O)CNC(=O)[C@H](CO)NC(=O)[C@H](CCC(=O)O)NC(=O)[C@H](CC(C)C)NC(=O)[C@H](CC(C)C)NC(=O)[C@H](CCCCN)NC(=O)[C@H](CCCCN)NC(=O)[C@H]([C@@H](C)CC)NC(=O)[C@H]([C@@H](C)CC)NC(=O)[C@H](CCCCN)NC(=O)[C@H](CCCCN)NC(=O)[C@H](Cc2ccc(O)cc2)NC(=O)[C@H](CC(C)C)NC(=O)[C@@H]2CCCN2C(=O)CNC(=O)CNC(=O)[C@@H](NC(=O)CN)CSSC[C@@H](C(N)=O)NC(=O)[C@H](CC(C)C)NC(=O)[C@H](CCCCN)NC(=O)[C@H](CCCCN)NC(=O)[C@H]([C@@H](C)CC)NC1=O` is recorded as 10.4 ± 0.1% (25% human serum; 50 µM, 24 h; reference: 0 h control).
`C[C@@H]1NC(=O)[C@H](CC(N)=O)N2C[C@H](Cc3c[nH]c4ccccc34)NC(=O)[C@H](CSCC2=O)NC(=O)[C@H](CCCNC(=N)N)NC(=O)[C@@H](Cc2ccccc2)NC(=O)[C@H](Cc2c[nH]cn2)NC(=O)[C@@H](NC(=O)[C@@H](N)Cc2ccc(O)cc2)CSSC[C@@H](C(=O)N[C@@H](Cc2ccc(O)cc2)C(N)=O)NC(=O)[C@H](Cc2ccccc2)NC1=O` has a remaining compound of about 40% (LC-MS; rat serum; 10 µM, 6 h, 37 °C).
Under “remaining intact peptide”, `CC[C@H](C)[C@@H]1NC(=O)[C@H](CCCCN)NC(=O)[C@H](CCCCN)NC(=O)[C@H](Cc2ccc(O)cc2)NC(=O)[C@H](CC(C)C)NC(=O)[C@@H]2CCCN2C(=O)[C@H](C)NC(=O)CNC(=O)CNC(=O)[C@H](CO)NC(=O)CNC(=O)CNC(=O)[C@H](CO)NC(=O)[C@H](CCC(=O)O)NC(=O)[C@H](CC(C)C)NC(=O)[C@H](CC(C)C)NC(=O)[C@H](CCCCN)NC(=O)[C@H](CCCCN)NC(=O)[C@H]([C@@H](C)CC)NC(=O)[C@H]([C@@H](C)CC)NC(=O)[C@H](CCCCN)NC(=O)[C@H](CCCCN)NC(=O)[C@H](Cc2ccc(O)cc2)NC(=O)[C@H](CC(C)C)NC(=O)[C@@H]2CCCN2C(=O)[C@H](C)NC(=O)CNC(=O)[C@@H]2CSSC[C@H](NC(=O)[C@H](CC(C)C)NC(=O)[C@H](CCCCN)NC(=O)[C@H](CCCCN)NC(=O)[C@H]([C@@H](C)CC)NC1=O)C(=O)N[C@@H](CCC(N)=O)C(=O)N[C@@H](CC(N)=O)C(=O)NCC(=O)N2` is recorded as 22.5 ± 3.5% (25% human serum; 50 µM, 24 h; reference: 0 h control).
`CC(C)C[C@@H]1NC(=O)[C@@H]2CCCN2C(=O)[C@H](Cc2c[nH]c3ccccc23)NC(=O)[C@@H]2CCCN2C(=O)[C@H](Cc2ccccc2)NC(=O)[C@H](CC(=O)O)NC(=O)[C@H](C)NC(=O)[C@@H]2CSSC[C@H](NC(=O)[C@H](CCC(N)=O)NC(=O)[C@H](Cc3c[nH]cn3)NC(=O)CNC1=O)C(=O)N[C@@H](Cc1ccccc1)C(=O)N1CCC[C@H]1C(=O)N[C@@H](CC(=O)O)C(=O)NCC(=O)N[C@@H](Cc1ccccc1)C(=O)N[C@H]1CSSC[C@H](NC(=O)[C@H](CO)NC(=O)[C@H](Cc3c[nH]cn3)NC(=O)[C@H](Cc3c[nH]cn3)NC(=O)[C@H](Cc3c[nH]c4ccccc34)NC1=O)C(=O)N[C@@H](C(C)C)C(=O)N1CCC[C@H]1C(=O)N[C@@H](CO)C(=O)NCC(=O)N[C@@H]([C@@H](C)O)C(=O)N2` gave a remaining intact of over 50% (RP-HPLC; simulated gastric fluid with pepsin; 24 h, pH 1.2, 37 °C).
Under “remaining intact peptide”, `CC[C@H](C)[C@@H]1NC(=O)[C@H](CCCCN)NC(=O)[C@H](CCCCN)NC(=O)[C@H](Cc2ccc(O)cc2)NC(=O)[C@H](CC(C)C)NC(=O)[C@@H]2CCCN2C(=O)[C@H](C)NC(=O)CNC(=O)CNC(=O)[C@H](CO)NC(=O)CNC(=O)CNC(=O)[C@H](CO)NC(=O)[C@H](CCC(=O)O)NC(=O)[C@H](CC(C)C)NC(=O)[C@H](CC(C)C)NC(=O)[C@H](CCCCN)NC(=O)[C@H](CCCCN)NC(=O)[C@H]([C@@H](C)CC)NC(=O)[C@H]([C@@H](C)CC)NC(=O)[C@H](CCCCN)NC(=O)[C@H](CCCCN)NC(=O)[C@H](Cc2ccc(O)cc2)NC(=O)[C@H](CC(C)C)NC(=O)[C@@H]2CCCN2C(=O)[C@H](C)NC(=O)CNC(=O)[C@@H](NC(=O)CN)CSSC[C@@H](C(=O)N[C@@H](CCC(=O)O)C(=O)N[C@@H](CO)C(=O)O)NC(=O)[C@H](CC(C)C)NC(=O)[C@H](CCCCN)NC(=O)[C@H](CCCCN)NC(=O)[C@H]([C@@H](C)CC)NC1=O` is recorded as 66.1 ± 5% (25% human serum; 50 µM, 24 h; reference: 0 h control).
`CC[C@H](C)[C@H](NC(=O)[C@H](Cc1c[nH]c2ccccc12)NC(=O)[C@H](CCCNC(=O)c1ccc2c(c1)C1(OC2=O)c2ccc(O)cc2Oc2cc(O)ccc21)NC(=O)CNC(=O)[C@H]1CCCN1C(=O)[C@@H](NC(=O)[C@H](CCCNC(=N)N)NC(=O)[C@@H](NC(=O)[C@H](Cc1c[nH]c2ccccc12)NC(=O)[C@H](CCCN)NC(C)=O)C(C)C)C(C)C)C(=O)N[C@@H](CCCNC(=N)N)C(=O)N[C@@H](CCC(N)=O)C(N)=O`: “remaining intact peptide” 80% (capillary electrophoresis; OPM-2 cell lysate; 10 µM, 180 min, pH 7.6, 37 °C).
`CC[C@H](C)[C@@H]1NC(=O)[C@H](CCCNC(=N)N)NC(=O)[C@H](CCCNC(=N)N)NC(=O)[C@H](Cc2ccc(O)cc2)NC(=O)[C@H](CC(C)C)NC(=O)[C@@H]2CCCN2C(=O)[C@H](C)NC(=O)CNC(=O)CNC(=O)[C@H](CO)NC(=O)CNC(=O)CNC(=O)[C@H](CO)NC(=O)[C@H](CCC(=O)O)NC(=O)[C@H](CC(C)C)NC(=O)[C@H](CC(C)C)NC(=O)[C@H](CCCNC(=N)N)NC(=O)[C@H](CCCNC(=N)N)NC(=O)[C@H]([C@@H](C)CC)NC(=O)[C@H]([C@@H](C)CC)NC(=O)[C@H](CCCNC(=N)N)NC(=O)[C@H](CCCNC(=N)N)NC(=O)[C@H](Cc2ccc(O)cc2)NC(=O)[C@H](CC(C)C)NC(=O)[C@@H]2CCCN2C(=O)CNC(=O)CNC(=O)[C@@H](NC(=O)CN)CSSC[C@@H](C(N)=O)NC(=O)[C@H](CC(C)C)NC(=O)[C@H](CCCNC(=N)N)NC(=O)[C@H](CCCNC(=N)N)NC(=O)[C@H]([C@@H](C)CC)NC1=O`: “remaining intact peptide” 4.4 ± 0.2% (25% human serum; 50 µM, 24 h; reference: 0 h control).
`CSCC[C@H](NC(=O)CNC(=O)[C@H](CC(=O)O)NC(=O)[C@@H](NC(=O)[C@@H](NC(=O)[C@@H](NC(=O)CNC(=O)[C@H](CCC(=O)O)NC(=O)[C@H](CCSC)NC(=O)[C@H](CC(=O)O)NC(=O)[C@H](C)NC(=O)[C@H](C)NC(=O)[C@@H](NC(=O)[C@H](CO)NC(=O)[C@@H](N)CC(C)C)[C@@H](C)O)C(C)C)C(C)C)[C@@H](C)O)C(=O)N[C@@H](C)C(=O)N[C@@H](CO)C(=O)NCC(=O)N[C@@H](CC(C)C)C(=O)N[C@@H](CC(=O)O)C(=O)N[C@@H](CCCCN)C(=O)N[C@@H](CC(=O)O)C(=O)N[C@@H](Cc1ccc(O)cc1)C(=O)N[C@@H](CC(C)C)C(=O)N[C@@H](CCCCN)C(=O)N1CCC[C@H]1C(=O)N[C@@H](CC(=O)O)C(=O)N[C@@H](CC(=O)O)C(=O)O` gave a remaining compound of 59% (LC-MS/MS; human serum; 10 µg/mL, 24 h, 37 °C).

For quick reference, copied from above:
Under “remaining intact peptide”, `CC[C@H](C)[C@H](NC(=O)[C@@H](Cc1c[nH]c2ccccc12)NC(=O)[C@@H]1CCCN1C(=O)[C@H](CCCCN)NC(=O)[C@H](CCCCN)NC(=O)CCNC(=O)CCNC(=O)CN1CCN(CC(=O)O)CCN(CC(=O)O)CCN(CC(=O)O)CC1)C(=O)N[C@@H](C[Si](C)(C)C)C(=O)O` [gallium-68 labelled] is recorded as 23.5% (human blood plasma; 15 min).
Under “remaining intact peptide”, `CC[C@H](C)[C@@H]1NC(=O)[C@H](CCCCN)NC(=O)[C@H](CCCCN)NC(=O)[C@H](Cc2ccc(O)cc2)NC(=O)[C@H](CC(C)C)NC(=O)[C@@H]2CCCN2C(=O)[C@H](C)NC(=O)CNC(=O)CNC(=O)[C@H](CO)NC(=O)CNC(=O)CNC(=O)[C@H](CO)NC(=O)[C@H](CCC(=O)O)NC(=O)[C@H](CC(C)C)NC(=O)[C@H](CC(C)C)NC(=O)[C@H](CCCCN)NC(=O)[C@H](CCCCN)NC(=O)[C@H]([C@@H](C)CC)NC(=O)[C@H]([C@@H](C)CC)NC(=O)[C@H](CCCCN)NC(=O)[C@H](CCCCN)NC(=O)[C@H](Cc2ccc(O)cc2)NC(=O)[C@H](CC(C)C)NC(=O)[C@@H]2CCCN2C(=O)[C@H](C)NC(=O)CNC(=O)[C@@H](NC(=O)CN)CSSC[C@@H](C(=O)N[C@@H](CCC(=O)O)C(=O)N[C@@H](CO)C(=O)O)NC(=O)[C@H](CC(C)C)NC(=O)[C@H](CCCCN)NC(=O)[C@H](CCCCN)NC(=O)[C@H]([C@@H](C)CC)NC1=O` is recorded as 66.1 ± 5% (25% human serum; 50 µM, 24 h; reference: 0 h control).
